{"data": "Published values collected from several papers", "OPRM1": "Mu-type opioid receptor (OPRM1, Homo sapiens, UniProt P35372)", "F fusion protein": "Fusion glycoprotein F0, fusion protein (F, Parainfluenza virus 5, UniProt P04849)", "gag-pol integrase": "Gag-Pol polyprotein, integrase (gag-pol, Human immunodeficiency virus type 1 group M subtype B, UniProt P04585)", "note": "Compare with care: the assays were run in different laboratories. ± marks the error that the study gave.", "sequence of UniProt P35372 (whole entry, looked up)": "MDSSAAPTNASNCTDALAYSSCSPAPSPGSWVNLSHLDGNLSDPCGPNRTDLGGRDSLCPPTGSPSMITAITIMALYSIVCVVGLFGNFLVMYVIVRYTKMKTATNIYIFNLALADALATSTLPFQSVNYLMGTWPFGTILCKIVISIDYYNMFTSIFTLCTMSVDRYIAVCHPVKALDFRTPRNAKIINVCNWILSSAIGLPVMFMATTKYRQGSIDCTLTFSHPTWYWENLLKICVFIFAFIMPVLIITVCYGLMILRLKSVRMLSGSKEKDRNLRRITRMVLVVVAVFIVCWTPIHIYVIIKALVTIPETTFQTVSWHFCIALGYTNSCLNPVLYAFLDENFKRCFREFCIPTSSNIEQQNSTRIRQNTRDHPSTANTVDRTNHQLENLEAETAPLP", "sequence of UniProt Q16762 (whole entry, looked up)": "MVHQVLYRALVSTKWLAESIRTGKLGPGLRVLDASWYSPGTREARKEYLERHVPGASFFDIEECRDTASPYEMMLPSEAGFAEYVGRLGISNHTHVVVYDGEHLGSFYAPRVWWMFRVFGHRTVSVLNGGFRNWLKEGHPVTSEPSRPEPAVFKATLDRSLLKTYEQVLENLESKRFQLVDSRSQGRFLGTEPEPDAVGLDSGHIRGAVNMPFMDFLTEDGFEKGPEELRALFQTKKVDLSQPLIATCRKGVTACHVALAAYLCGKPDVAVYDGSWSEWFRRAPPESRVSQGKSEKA", "sequence of UniProt P32300 (whole entry, looked up)": "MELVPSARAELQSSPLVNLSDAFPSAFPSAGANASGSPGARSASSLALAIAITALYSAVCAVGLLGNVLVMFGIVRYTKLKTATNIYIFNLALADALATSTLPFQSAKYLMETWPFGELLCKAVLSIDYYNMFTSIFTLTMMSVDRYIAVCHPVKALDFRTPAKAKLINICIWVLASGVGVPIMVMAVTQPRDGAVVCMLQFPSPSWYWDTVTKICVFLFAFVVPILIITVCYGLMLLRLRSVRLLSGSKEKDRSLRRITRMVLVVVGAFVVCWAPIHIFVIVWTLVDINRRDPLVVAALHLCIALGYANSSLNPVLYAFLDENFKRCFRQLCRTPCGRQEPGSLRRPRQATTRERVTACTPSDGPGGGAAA", "sequence of UniProt O43497 (whole entry, looked up)": "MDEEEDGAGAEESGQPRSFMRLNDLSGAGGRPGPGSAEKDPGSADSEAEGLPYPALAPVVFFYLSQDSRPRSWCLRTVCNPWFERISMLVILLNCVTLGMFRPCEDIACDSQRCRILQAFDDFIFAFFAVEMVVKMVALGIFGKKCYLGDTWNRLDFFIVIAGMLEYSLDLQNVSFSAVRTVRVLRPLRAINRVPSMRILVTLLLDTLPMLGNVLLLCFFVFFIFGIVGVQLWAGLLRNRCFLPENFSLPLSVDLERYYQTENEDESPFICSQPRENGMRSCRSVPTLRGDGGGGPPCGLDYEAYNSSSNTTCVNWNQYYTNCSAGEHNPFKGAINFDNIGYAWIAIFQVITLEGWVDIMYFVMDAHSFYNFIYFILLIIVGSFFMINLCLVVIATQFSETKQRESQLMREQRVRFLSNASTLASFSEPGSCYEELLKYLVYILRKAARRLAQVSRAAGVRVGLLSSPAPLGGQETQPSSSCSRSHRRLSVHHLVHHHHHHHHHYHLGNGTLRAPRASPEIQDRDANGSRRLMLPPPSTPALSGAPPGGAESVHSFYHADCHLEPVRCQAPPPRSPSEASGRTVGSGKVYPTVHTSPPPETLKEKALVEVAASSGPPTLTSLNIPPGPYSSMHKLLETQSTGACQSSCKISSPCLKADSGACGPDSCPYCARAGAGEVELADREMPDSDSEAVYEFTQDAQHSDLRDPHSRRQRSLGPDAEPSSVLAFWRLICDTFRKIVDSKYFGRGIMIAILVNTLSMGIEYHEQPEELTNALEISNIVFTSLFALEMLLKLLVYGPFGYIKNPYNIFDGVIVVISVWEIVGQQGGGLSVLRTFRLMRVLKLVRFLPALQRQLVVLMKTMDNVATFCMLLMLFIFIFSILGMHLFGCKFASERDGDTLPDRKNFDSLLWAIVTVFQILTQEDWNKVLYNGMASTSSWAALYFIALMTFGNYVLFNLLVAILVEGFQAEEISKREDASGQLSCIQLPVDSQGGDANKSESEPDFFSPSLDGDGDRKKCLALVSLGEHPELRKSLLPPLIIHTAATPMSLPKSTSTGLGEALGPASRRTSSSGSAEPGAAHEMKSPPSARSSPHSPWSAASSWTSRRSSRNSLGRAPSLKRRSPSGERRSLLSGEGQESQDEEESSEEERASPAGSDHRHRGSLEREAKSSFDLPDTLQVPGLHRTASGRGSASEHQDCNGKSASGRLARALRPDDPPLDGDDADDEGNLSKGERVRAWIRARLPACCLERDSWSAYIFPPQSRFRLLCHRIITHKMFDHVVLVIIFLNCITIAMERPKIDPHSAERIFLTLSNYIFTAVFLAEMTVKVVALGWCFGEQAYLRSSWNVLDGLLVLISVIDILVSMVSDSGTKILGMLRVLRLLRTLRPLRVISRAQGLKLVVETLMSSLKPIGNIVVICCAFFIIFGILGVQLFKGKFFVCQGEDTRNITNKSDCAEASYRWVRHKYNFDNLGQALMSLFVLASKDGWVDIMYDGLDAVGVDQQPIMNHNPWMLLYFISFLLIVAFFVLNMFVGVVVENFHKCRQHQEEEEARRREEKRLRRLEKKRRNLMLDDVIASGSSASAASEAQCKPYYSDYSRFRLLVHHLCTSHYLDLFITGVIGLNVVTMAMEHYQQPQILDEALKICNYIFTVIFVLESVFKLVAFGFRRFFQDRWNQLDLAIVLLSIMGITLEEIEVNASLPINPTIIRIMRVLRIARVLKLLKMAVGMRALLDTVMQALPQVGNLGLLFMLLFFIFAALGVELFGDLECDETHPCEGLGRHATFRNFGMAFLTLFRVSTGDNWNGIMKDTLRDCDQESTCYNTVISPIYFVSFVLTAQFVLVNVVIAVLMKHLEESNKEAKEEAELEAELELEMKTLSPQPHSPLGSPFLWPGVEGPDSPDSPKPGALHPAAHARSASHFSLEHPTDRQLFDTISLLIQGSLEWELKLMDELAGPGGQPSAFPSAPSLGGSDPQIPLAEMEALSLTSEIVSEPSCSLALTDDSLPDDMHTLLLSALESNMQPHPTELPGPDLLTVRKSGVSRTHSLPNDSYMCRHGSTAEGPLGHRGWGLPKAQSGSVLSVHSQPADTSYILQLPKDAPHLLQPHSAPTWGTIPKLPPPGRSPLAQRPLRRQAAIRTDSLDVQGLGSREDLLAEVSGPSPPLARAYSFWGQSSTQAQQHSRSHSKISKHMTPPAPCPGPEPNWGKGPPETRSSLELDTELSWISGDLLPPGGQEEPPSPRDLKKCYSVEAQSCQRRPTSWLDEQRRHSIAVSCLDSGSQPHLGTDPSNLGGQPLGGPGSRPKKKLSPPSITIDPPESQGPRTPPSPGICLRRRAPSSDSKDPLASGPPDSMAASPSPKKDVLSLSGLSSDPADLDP"}
{"SMILES": "CC(C)C[C@H](NC(=O)[C@H](CO)NC(=O)[C@H](CCCCN)NC(=O)[C@H](CC(C)C)NC(=O)C(C)(C)NC(=O)[C@H](CCCCN)NC(=O)[C@H](CCC(=O)O)NC(=O)C(C)(C)NC(=O)[C@H](CC(C)C)NC(=O)[C@H](CC(N)=O)NC(=O)[C@@H]1CCCN1C(=O)[C@H](CC(C)C)NC(=O)[C@H](Cc1ccccc1)NC(=O)CNC(=O)[C@H](NC(=O)[C@@H](N)Cc1ccc(O)cc1)[C@H](C)O)C(N)=O", "tested on": "OPRM1", "assay": "radioligand displacement", "test system": "CHO membranes", "conditions": "60 min, pH 7.5, 25 °C, with: 0.25 nM [3H]DAMGO", "quantity": "Ki", "value": "0.029 ± 0.0031 µM"}
{"SMILES": "NC(=O)[C@H](CO)NC(=O)[C@@H]1CCCN1C(=O)[C@H](Cc1ccc(O)cc1)NC(=O)CNC(=O)[C@H](Cc1ccccc1)NC(=O)[C@@H](CCCN=C=S)NC(=O)[C@@H](N)Cc1ccc(O)cc1", "tested on": "Delta-type opioid receptor (Oprd1, Mus musculus, UniProt P32300)", "assay": "radioligand binding", "test system": "CHO cells", "conditions": "with: 0.15 nM [3H]DPDPE", "quantity": "IC50", "value": "0.0238 ± 0.0021 µM"}
{"SMILES": "CCCCCCCCCCCCCCCC(=O)N[C@@H](CCC(=O)NCCOCCOCCC(=O)NCCOCCOCCC(=O)NCCCC[C@H](NC(=O)[C@H](CC(=O)O)NC(=O)[C@H](CC(C)C)NC(=O)[C@H](Cc1ccc(O)cc1)NC(=O)[C@H](CCCCN)NC(=O)[C@H](CO)NC(=O)[C@H](Cc1ccc(O)cc1)NC(=O)[C@H](CC(=O)O)NC(=O)[C@H](CO)NC(=O)[C@@H](NC(=O)[C@H](Cc1ccccc1)NC(=O)[C@@H](NC(=O)CNC(=O)[C@H](CCC(N)=O)NC(=O)[C@@H](CO)NC(=O)[C@@H](N)Cc1c[nH]cn1)[C@@H](C)O)[C@@H](C)O)C(=O)N[C@@H](CCCNC(=N)N)C(=O)N[C@@H](CCCNC(=N)N)C(=O)N[C@@H](C)C(=O)N[C@@H](CCC(N)=O)C(=O)N[C@@H](CC(=O)O)C(=O)N[C@@H](Cc1ccccc1)C(=O)N[C@H](C(=O)N[C@@H](CCC(N)=O)C(=O)N[C@@H](Cc1c[nH]c2ccccc12)C(=O)N[C@@H](CC(C)C)C(=O)N[C@@H](CC(C)C)C(=O)N[C@@H](CC(N)=O)C(=O)N[C@H](C(=O)NCC(=O)NCC(=O)N1CCC[C@H]1C(=O)N[C@@H](CO)C(=O)N[C@@H](CO)C(=O)NCC(=O)N[C@@H](C)C(=O)N1CCC[C@H]1C(=O)N1CCC[C@H]1C(=O)N1CCC[C@H]1C(=O)N[C@@H](CO)C(N)=O)[C@@H](C)O)C(C)C)C(=O)O", "test system": "male Sprague-Dawley rats", "conditions": "subcutaneous, 20 µg/kg once daily, 14 days", "quantity": "serum cholesterol", "value": "1.25 ± 0.21 mmol/L"}
{"SMILES": "CC(C)C[C@H](NC(=O)[C@H](CO)NC(=O)[C@H](CCCCN)NC(=O)[C@H](CC(C)C)NC(=O)C(C)(C)NC(=O)[C@H](CCCCN)NC(=O)[C@H](CCC(=O)O)NC(=O)[C@H](C)NC(=O)[C@H](CC(C)C)NC(=O)[C@H](CC(N)=O)NC(=O)[C@@H]1CCCN1C(=O)[C@H](CC(C)C)NC(=O)[C@H](Cc1ccccc1)NC(=O)CNC(=O)[C@H](NC(=O)[C@@H](N)Cc1ccc(O)cc1)[C@H](C)O)C(N)=O", "tested on": "OPRM1", "assay": "radioligand displacement", "test system": "CHO membranes", "conditions": "60 min, pH 7.5, 25 °C, with: 0.25 nM [3H]DAMGO", "quantity": "Ki", "value": "0.029 ± 0.00067 µM"}
{"SMILES": "CC[C@H](C)[C@H](N)C(=O)N[C@@H](CC(N)=O)C(=O)N[C@@H](CC(N)=O)C(=O)N[C@H](C(=O)N1C[C@@H](n2cc([C]34[CH]5[CH]6[CH]7[CH]3[Fe]6754389%10[CH]4[CH]3[CH]8[CH]9[CH]4%10)nn2)C[C@H]1C(=O)N[C@@H](Cc1ccc(O)cc1)C(N)=O)[C@@H](C)CC (some centres unmarked)", "tested on": "Envelope glycoprotein gp160, gp120 (env, Human immunodeficiency virus type 1 group M subtype B, UniProt P35961, I108A)", "assay": "binding to soluble CD4, inhibitor, competition SPR", "conditions": "gp120 I109A mutant", "quantity": "IC50", "value": "3.1 ± 0.3 µM"}
{"SMILES": "C[C@H](NC(=O)[C@H](Cc1ccncc1)NC(=O)[C@H](C)NC(=O)[C@H](CCCCN)NC(=O)[C@H](CCCNC(=N)N)NC(=O)[C@H](CCCCN)NC(=O)[C@H](C)NC(=O)[C@@H](N)CO)C(=O)N[C@@H](CCCCN)C(=O)N[C@@H](Cc1ccccc1)C(=O)N[C@@H](CCCCN)C(=O)N[C@@H](C)C(=O)N[C@@H](CCN)C(N)=O", "tested on": "Genome polyprotein, NS2B-NS3 protease (ZIKV, UniProt A0A024B7W1)", "assay": "protease activity, inhibitor, FRET", "test system": "Zika virus", "quantity": "IC50", "value": "3.8 ± 1.1 µM"}
{"SMILES": "CC(C)C[C@@H]1NC(=O)[C@H](Cc2c[nH]c3ccccc23)NC(=O)[C@H](Cc2ccc(O)cc2)NC(=O)[C@H](CCCNC(=N)N)NC(=O)[C@@H](NC(=O)[C@@H](N)CCC(=O)O)CSSC[C@@H]2NC(=O)[C@@H]3CSSC[C@@H](C(=O)N[C@H](C(=O)N[C@@H](Cc4c[nH]c5ccccc45)C(=O)N[C@@H](CC(=O)O)C(=O)NCC(=O)N[C@H](C(=O)N[C@@H](Cc4ccccc4)C(=O)N[C@@H](CO)C(=O)O)[C@@H](C)O)C(C)C)NC(=O)[C@H](Cc4c[nH]c5ccccc45)NC(=O)CNC(=O)[C@H](Cc4c[nH]cn4)NC(=O)[C@H](CCCNC(=N)N)NC(=O)[C@H](CCCNC(=N)N)NC(=O)[C@H](CO)NC(=O)[C@H](CSSC[C@H](NC(=O)CNC(=O)CNC1=O)C(=O)N[C@@H](CO)C(=O)N[C@@H](C)C(=O)NCC(=O)N[C@@H](CCC(N)=O)C(=O)N[C@@H]([C@@H](C)O)C(=O)N3)NC(=O)[C@H](C(C)C)NC(=O)[C@H](CC(C)C)NC(=O)[C@H](Cc1c[nH]cn1)NC(=O)[C@H](CCCCN)NC2=O", "tested on": "Voltage-dependent T-type calcium channel subunit alpha-1G (CACNA1G, Homo sapiens, UniProt O43497)", "assay": "calcium signal, antagonist, fluorescence", "quantity": "IC50", "value": "0.22 µM"}
{"SMILES": "CC[C@H](C)[C@H](NC(=O)[C@H](C)NC(=O)[C@H](CO)NC(=O)[C@H](CC(C)C)NC(=O)[C@H](Cc1ccc(O)cc1)NC(=O)[C@@H](NC(=O)[C@H](CC(=O)O)NC(=O)[C@H](CO)NC(=O)[C@H](CCC(N)=O)NC(=O)[C@H](C)NC(=O)[C@H](CC(C)C)NC(=O)[C@H](Cc1c[nH]cn1)NC(=O)[C@H](CCC(N)=O)NC(=O)[C@H](CC(C)C)NC(=O)[C@H](C)NC(=O)[C@H](CC(=O)O)NC(=O)[C@H](CO)NC(=O)[C@H](CC(C)C)NC(=O)[C@H](CO)NC(=O)[C@H](CCCCN)NC(=O)[C@H](CC(N)=O)NC(=O)[C@@H](NC(=O)[C@H](C)NC(=O)[C@H](C)NC(=O)[C@H](CC(C)C)NC(=O)[C@H](CC(N)=O)NC(=O)[C@H](CCC(N)=O)NC(=O)[C@H](CO)NC(=O)[C@H](Cc1ccccc1)NC(=O)[C@H](CC(=O)O)NC(=O)[C@H](CC(C)C)NC(=O)[C@@H]1CCCN1C(=O)[C@H](CC(=O)O)NC(=O)[C@@H](NC(=O)[C@H](CO)NC(=O)[C@H](CC(C)C)NC(=O)[C@@H](NC(=O)[C@H](CCC(N)=O)NC(=O)[C@H](CO)NC(=O)[C@H](CO)NC(=O)[C@H](CCC(=O)O)NC(=O)[C@H](CC(C)C)NC(=O)[C@@H](N)CCCCN)[C@@H](C)CC)[C@@H](C)CC)C(C)C)[C@@H](C)O)C(=O)O", "tested on": "F fusion protein", "assay": "cell-cell fusion, inhibitor, luciferase reporter", "test system": "Vero plus BSR-T7 cells", "conditions": "6 h, 37 °C, with: SV5 F and HN", "quantity": "IC50", "value": "0.151 ± 0.012 µM"}
{"SMILES": "O=C1c2c(ccc(O)c2O)CN1Cc1cccc(Cl)c1F", "tested on": "Gag-Pol polyprotein, integrase (gag-pol, Human immunodeficiency virus 1, UniProt P12497, Y1290R)", "assay": "enzyme activity, inhibitor", "quantity": "IC50", "value": "6.6 ± 0.3 µM"}
{"SMILES": "C=CCCC[C@H](NC(=O)[C@H](CCCNC(=N)N)NC(=O)[C@@H](NC(=O)[C@@H](NC(=O)[C@H](CCCC=C)NC(=O)[C@H](CCC(=O)O)NC(C)=O)[C@@H](C)CC)[C@@H](C)CC)C(=O)N[C@@H](CC(C)C)C(=O)N[C@@H](CCC(N)=O)C(=O)N[C@@H](CCC(N)=O)C(=O)N[C@@H](CC(C)C)C(=O)N[C@@H](CC(C)C)C(=O)N[C@@H](Cc1ccccc1)C(=O)N[C@H](C(=O)N[C@@H](Cc1c[nH]cn1)C(=O)N[C@@H](Cc1ccccc1)C(=O)N[C@@H](CCCNC(=N)N)C(=O)N[C@H](C(=O)NCC(N)=O)[C@@H](C)CC)[C@@H](C)CC", "tested on": "gag-pol integrase", "assay": "strand transfer, inhibitor", "test system": "HIV-1", "quantity": "IC50", "value": "1.7 ± 0.3 µM"}
{"SMILES": "C=CCCC[C@](C)(N)C(=O)N[C@@H](C)C(=O)N[C@@H](Cc1ccc(O)cc1)C(=O)N[C@@H](Cc1ccccc1)C(=O)N[C@@](C)(CCCC=C)C(=O)N[C@@H](CC(C)C)C(=O)N[C@@H](CCCCN)C(=O)N[C@@H](CC(C)C)C(=O)N[C@@H](C)C(=O)NCC(=O)N[C@@H](CCCNC(=N)N)C(=O)N[C@@H](Cc1c[nH]c2ccccc12)C(N)=O", "tested on": "gag-pol integrase", "assay": "integrase 3'-processing, inhibitor", "quantity": "IC50", "value": "22 ± 8 µM"}
{"SMILES": "CC[C@H](C)[C@H](NC(=O)[C@H](C)NC(=O)[C@H](CO)NC(=O)[C@H](CC(C)C)NC(=O)[C@H](Cc1ccc(O)cc1)NC(=O)[C@@H](NC(=O)[C@H](CC(=O)O)NC(=O)[C@H](CO)NC(=O)[C@H](CCC(N)=O)NC(=O)[C@H](C)NC(=O)[C@H](CC(C)C)NC(=O)[C@H](Cc1c[nH]cn1)NC(=O)[C@H](CCC(N)=O)NC(=O)[C@H](CC(C)C)NC(=O)[C@H](C)NC(=O)[C@H](CC(=O)O)NC(=O)[C@H](CO)NC(=O)[C@H](CC(C)C)NC(=O)[C@H](CO)NC(=O)[C@H](CCCCN)NC(=O)[C@H](CC(N)=O)NC(=O)[C@@H](NC(=O)[C@H](C)NC(=O)[C@H](C)NC(=O)[C@H](CC(C)C)NC(=O)[C@H](CC(N)=O)NC(=O)[C@H](CCC(N)=O)NC(=O)[C@H](CO)NC(=O)[C@@H](NC(=O)[C@H](CC(=O)O)NC(=O)[C@H](C)NC(=O)[C@@H]1CCCN1C(=O)[C@H](CC(=O)O)NC(=O)[C@@H](NC(=O)[C@H](CO)NC(=O)[C@H](CC(C)C)NC(=O)[C@@H](NC(=O)[C@H](CCC(N)=O)NC(=O)[C@H](CO)NC(=O)[C@H](CO)NC(=O)[C@H](CCC(=O)O)NC(=O)[C@H](CC(C)C)NC(=O)[C@@H](N)CCCCN)[C@@H](C)CC)[C@@H](C)CC)[C@@H](C)CC)C(C)C)[C@@H](C)O)C(=O)O", "tested on": "F fusion protein", "assay": "cell-cell fusion, inhibitor, luciferase reporter", "test system": "Vero plus BSR-T7 cells", "conditions": "6 h, 37 °C, with: SV5 F and HN", "quantity": "IC50", "value": "0.092 ± 0.01 µM"}
{"SMILES": "CC[C@H](C)[C@H](NC(=O)[C@H](CCCNC(=N)N)NC(=O)[C@H](Cc1ccccc1)NC(=O)[C@H](Cc1c[nH]cn1)NC(=O)[C@@H](NC(=O)[C@H](Cc1ccccc1)NC(=O)[C@H](CC(C)C)NC(=O)[C@H](CC(C)C)NC(=O)[C@H](CCC(N)=O)NC(=O)[C@H](CCC(N)=O)NC(=O)[C@H](CC(C)C)NC(=O)[C@@H]1CCCC=CCCC[C@H](NC(=O)[C@H](CCC(=O)O)NC(C)=O)C(=O)N[C@@H]([C@@H](C)CC)C(=O)N[C@@H]([C@@H](C)CC)C(=O)N[C@@H](CCCNC(=N)N)C(=O)N1)[C@@H](C)CC)C(=O)NCC(N)=O", "tested on": "gag-pol integrase", "assay": "3′-end processing, inhibitor", "test system": "HIV-1", "quantity": "IC50", "value": "2.5 ± 0.4 µM"}
{"SMILES": "O=C1SCCC1NC(C(=O)NCc1ccccc1)C1CC1 (centres unmarked)", "tested on": "Thiosulfate sulfurtransferase (TST, Homo sapiens, UniProt Q16762)", "assay": "enzyme activity, activator, cyanide to thiocyanate conversion", "quantity": "EC50", "value": "17 ± 9.5 µM"}
